# Measured values of several laboratories.
# Each line is one published result; not all experiments were run side by side. “And” joins repeats or separate records; there may be more than shown. ± gives the spread as reported.
# Chain of UniProt Q9Y5T5 (whole entry, looked up): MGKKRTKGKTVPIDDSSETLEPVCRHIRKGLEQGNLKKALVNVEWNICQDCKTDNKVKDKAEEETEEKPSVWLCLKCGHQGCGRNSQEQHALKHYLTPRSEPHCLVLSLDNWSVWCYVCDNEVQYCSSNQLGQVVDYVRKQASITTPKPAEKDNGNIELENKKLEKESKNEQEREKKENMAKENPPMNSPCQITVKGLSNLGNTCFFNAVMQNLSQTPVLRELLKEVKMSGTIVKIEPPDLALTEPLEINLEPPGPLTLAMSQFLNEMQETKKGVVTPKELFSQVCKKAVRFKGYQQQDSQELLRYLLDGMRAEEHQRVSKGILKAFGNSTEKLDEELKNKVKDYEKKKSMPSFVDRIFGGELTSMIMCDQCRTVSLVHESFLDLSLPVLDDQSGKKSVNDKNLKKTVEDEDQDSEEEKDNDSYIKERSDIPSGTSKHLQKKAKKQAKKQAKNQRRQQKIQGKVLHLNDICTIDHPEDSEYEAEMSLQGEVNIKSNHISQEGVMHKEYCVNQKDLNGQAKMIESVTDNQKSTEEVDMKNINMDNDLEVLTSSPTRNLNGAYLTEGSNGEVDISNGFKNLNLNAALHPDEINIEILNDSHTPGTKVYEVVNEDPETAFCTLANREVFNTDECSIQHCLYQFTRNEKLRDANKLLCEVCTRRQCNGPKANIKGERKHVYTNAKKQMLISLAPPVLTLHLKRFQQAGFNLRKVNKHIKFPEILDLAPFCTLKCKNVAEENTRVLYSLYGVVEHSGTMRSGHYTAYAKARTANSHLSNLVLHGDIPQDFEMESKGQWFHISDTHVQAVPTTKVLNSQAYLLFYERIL
Structure (SMILES),target or system,test,system,conditions,scale,measurement,value
CNCCOC12CC3(C)CC(C)(CC(Cn4ncc(-c5ccc(N6CCc7cccc(C(=O)Nc8nc9ccccc9s8)c7C6)nc5C(=O)O)c4C)(C3)C1)C2,,,anaesthetised male beagle dogs,"intravenous bolus, 0.03 mg/kg, 120 min",baseline: baseline,cardiac output change,-47%
CCc1cc(C(=O)NC)c2nccc(N3CCc4c(cc(Cn5ccnc5)cc4-c4cn(C)nc4C(F)(F)F)C3=O)c2c1,,,Sprague Dawley rats,"oral, 50 mg/kg once daily, 7 days",baseline: vehicle,reticulocyte percentage change,-6.52%
COC(=O)C1=CO[C@@H](O[C@@H]2O[C@H](CO)[C@@H](O)[C@H](O)[C@H]2O)[C@@H]2C(CO)=CC[C@H]12,,,rat plasma,"1000 ng/mL, 2 weeks, -70 °C, post-preparative stability",,accuracy,90.8%
COc1ccc2c(c1)CN(C(=O)CCN1CCC(Cc3ccccc3)CC1)CC[S@@+]2[O-],,telemetry,conscious male beagle dogs,"intravenous, 8 mg/kg, 0.5 h",,PQ interval,72 ± 12 ms
c1ccc2c(c1)-c1cccc3c1c-2cc1ccccc13,,,polyethylene-water partitioning,PAH compilation,,literature range of log K,6 to 6.66 log units
O=C(COc1ccc(Cl)cc1)NC12CC(c3nnc([C@H]4C[C@@H](OC(F)(F)F)C4)o3)(C1)C2,,item: Fatigue,human,"oral, 145 mg once daily, 14 days",,adverse event incidence,71.4%
Cc1cc([C@H]2C[C@H]3[C@@H](C)SC(N)=N[C@@]3(c3ccc(F)cc3F)CO2)on1,,,"male 129/SVE mouse, brain","subcutaneous, 50 mg/kg, 1 h",,brain concentration,20.4 µM
CN1C(=O)[C@@H](NC(=O)c2nnc(Cc3ccccc3)[nH]2)COc2cccnc21,,phase I multiple ascending dose,"human, male and female","oral, 50 mg, 14 days",,participants with any TEAE,87.5%
CN[C@@H]1COc2c(S(=O)(=O)NC(=O)Nc3c4c(cc5c3CCC5)CCC4)cnn2C1,,,"healthy human volunteers, urine","oral, 600 mg, high-fat meal",,amount excreted in urine 0-48 h,71.4 mg
O=C(O)CCC(=O)O.[2H]C([2H])([2H])Oc1cc(C)c2[nH]ccc2c1CN1CC[C@@H](C2CC2)C[C@H]1c1ccc(C(=O)O)cc1,,multiple ascending dose,healthy Chinese subjects,200 mg once daily,,subjects with increased creatinine TEAE,0%
NC1(C(=O)N[C@@H](CCO)c2ccc(Cl)cc2)CCN(c2nc[nH]c3nccc2-3)CC1,,,metastatic CRPC patients,"480 mg b.i.d., any grade, treatment-related, with: enzalutamide 160 mg daily",,incidence of Neutropenia,20%
CC(C)(C(=O)N1CCOc2c(C#N)cncc2C1)C(F)F,,item: skin abrasion,human,"oral, 10 mg once daily, 14 days, multiple ascending dose",,subjects with adverse event,0%
C[C@@H](Nc1cc(F)cc(F)c1)c1cc(C(=O)N(C)C)cc2c(=O)cc(N3CCOCC3)oc12,,item: Hypersensitivity,advanced solid tumour patients,"oral, dose not given, dose finding",,related serious adverse events,1.6%
COc1ccc2nc([S@@+]([O-])Cc3ncc(CO)c(OC)c3C)[nH]c2c1,,,human,"concentration not given, control session",baseline: (R)-OH-omeprazole over compound,AUC ratio,11 fold
C[C@H]1CN(C(=O)CC#N)[C@]12CCN(c1ncnc3[nH]ccc13)C2,,,"healthy Japanese males, plasma","oral, 5 mg single dose",,Cmax,56.5 ng/mL
CC(C)[C@H](C(=O)Nc1ccc(C(=O)NO)cc1)c1ccccc1,,,whole blood,"1000 ng/mL, 3 h, 4 °C, stability on ice",,accuracy,107%
O=C(O)CCC(=O)Nc1cccc2ccccc12,"Ubiquitin carboxyl-terminal hydrolase 16, ZnF-UBD domain (USP16, Homo sapiens, UniProt Q9Y5T5)",,,,,Kd,> 1 mM
COc1ccc2c(=O)n(C)c(-c3ccccc3)nc2c1,,,"Sprague-Dawley rat, male, liver","oral, 30 mg/kg, 0.25 h",baseline: liver over plasma,tissue/plasma ratio,58.9
CC(C)n1c(C2CCNCC2)nc2c([N+](=O)[O-])c(Br)c(Br)cc21,,,"human, urine","oral, 100 mg, 0-24 h, median, single dose",,amount excreted in urine,1.26 mg
O=C(Cc1ccc2ccccc2c1)Nc1cc(C2CCC2)[nH]n1,,,mouse plasma,"0.5 ng/mL, 8 h, ambient temperature, bench-top stability",,accuracy,101%
O=C(c1nc2n(n1)[C@H](c1ccccc1)C[C@@H]2F)C1CC1,,,human,225 mg single dose,,renal clearance,0.043 to 0.357 mL/min
COc1ccc2cc(CCC[18F])ccc2c1,,,n-octanol/0.1 M phosphate buffer,"pH 7.4, 25 °C, per radiosynthesis batch",,partition coefficient,296 and 348 and 232
Cc1c(-c2ccc(N3CCc4cccc(C(=O)Nc5nc6ccccc6s5)c4C3)nc2C(=O)O)cnn1CC12CC3(C)CC(C)(C1)CC(OCCNCC[C@H](O)CO)(C3)C2,,,anaesthetised male beagle dogs,"intravenous infusion, 0.3 mg/kg/min, 75 min",baseline: vehicle,systemic vascular resistance change,-14%
CN(C(=O)n1cnc(-c2ccc[n+]([O-])c2)c1)C1CCCCC1,,,"cynomolgus monkey, male, plasma","oral, 1.0 mg/kg",,Tmax,2 h
Cc1ccc(Sc2ccccc2N2CCNCC2)c(C)c1,,item: AST increased,healthy adult men,"oral, 10 mg daily, 12 days",,participants with TEAE,0%
c1ccc2c(c1)ccc1c3ccccc3ccc21,,,polyethylene-water partitioning,PAH compilation,,literature range of log K,5.37 to 5.91 log units
O=C(O)CCCOc1ccc([18F])cc1-c1cc(-c2ccccc2C(F)(F)F)n(-c2ccccc2)n1,,gamma counting,"male ddY mice, brain","intravenous, 2.1 MBq, 30 min",,radioactivity uptake,0.24 ± 0.01 SUV
C[Si](C)(C)O[Si](C)(C)C,,,1-octanol/air,concentration not given,,entropy of phase change,-0.034 kJ/(mol·K)
Cc1nc2cccc(OCC(C)(C)C(=O)NC(C)C)c2c(N)c1C(=O)O,,,"male Swiss albino CD-1 mouse, bone marrow","oral, 1000 mg/kg, 36 h",,micronucleated PCE per 14000 PCE,9
CCCCCCCCCCCCCCCC(=O)N[C@@H](CCC(=O)NCCCC[C@H](NC(=O)[C@H](C)NC(=O)[C@H](C)NC(=O)[C@H](CCC(N)=O)NC(=O)CNC(=O)[C@H](CCC(=O)O)NC(=O)[C@H](CC(C)C)NC(=O)[C@H](Cc1ccc(O)cc1)NC(=O)[C@H](CO)NC(=O)[C@H](CO)NC(=O)[C@@H](NC(=O)[C@H](CC(=O)O)NC(=O)[C@H](CO)NC(=O)[C@@H](NC(=O)[C@H](Cc1ccccc1)NC(=O)[C@@H](NC(=O)CNC(=O)[C@H](CCC(=O)O)NC(=O)[C@H](C)NC(=O)[C@@H](N)Cc1cnc[nH]1)[C@@H](C)O)[C@@H](C)O)C(C)C)C(=O)N[C@@H](CCC(=O)O)C(=O)N[C@@H](Cc1ccccc1)C(=O)N[C@H](C(=O)N[C@@H](C)C(=O)N[C@@H](Cc1c[nH]c2ccccc12)C(=O)N[C@@H](CC(C)C)C(=O)N[C@H](C(=O)N[C@@H](CCCNC(=N)N)C(=O)NCC(=O)N[C@@H](CCCNC(=N)N)C(=O)NCC(=O)O)C(C)C)[C@@H](C)CC)C(=O)O,,,"rat Sprague-Dawley male, plasma","subcutaneous, 1.0 mg/kg, first injection, 7 day escalation",,AUC(0-peak),125 µg·h/mL
CNC(=O)c1ccc(-c2cnc3ncc(Cc4ccc5ncccc5c4)n3n2)cc1F,,"item: Diarrhea, all grades",hepatocellular carcinoma patients,"oral, 600 mg twice daily, expansion cohort, any causality",,patients with adverse event,36%
C=C[C@@](C)(/C=C/c1ccc(O)cc1)CCC=C(C)C,,three freeze-thaw cycles,rat plasma,"200 ng/mL, -70 °C freeze",,accuracy,84.3%
CN[C@H]1C(=O)N[C@@H]2Cc3ccc(cc3)Oc3cc4cc(c3O[C@@H]3O[C@H](C(=O)O)[C@@H](O)[C@H](O)[C@H]3NC(=O)CCCCCCCCC(C)C)Oc3ccc(cc3Cl)[C@@H](O)[C@@H]3NC(=O)[C@H](NC(=O)[C@@H]4NC(=O)[C@@H](NC2=O)c2cc(cc(O)c2Cl)Oc2cc1ccc2O)c1ccc(O)c(c1)-c1c(O[C@H]2O[C@H](CO)[C@@H](O)[C@H](O)[C@@H]2O)cc(O)cc1[C@@H](C(=O)NCCCN(C)C)NC3=O,,population PK model,paediatric patients,"dose not given, reference weight 70 kg",,central volume of distribution,4.58 L
Cc1cccc(CNC(=O)c2cn(CCNC(=O)c3ccccc3Sc3c([N+](=O)[O-])ncn3C)c3cc4c(cc3c2=O)OCO4)n1,,LC-MS/MS,"CD-1 mouse, whole blood","1 µM, 0.25 h",,remaining compound,98.8%
NC(=O)c1ccc[n+]([C@@H]2O[C@H](COP(=O)([O-])O)[C@@H](O)[C@H]2O)c1,,"binding, MIDAS equilibrium dialysis LC-MS",A2AR-BRIL thermostabilized,concentration not given,baseline: no-protein control,log2 fold change,-0.167
CNC(=O)c1ccccc1Nc1cc(Nc2ccc(N3CCOCC3)cc2OC)ncc1C(F)(F)F,,,Capmul MCM,"24 h, 25 °C",,solubility,7840 µg/mL
Cc1cc(-c2nccc3c2ccn3CC(=O)Nc2ccc(-c3cnccn3)cn2)ccn1,,,human,"MAD part, 15 mg once daily",,subjects with TEAE leading to discontinuation,11.1%
CC(C)CC(O)C(=O)O (centres unmarked),,"binding, MIDAS equilibrium dialysis LC-MS",A2AR-BRIL thermostabilized,concentration not given,baseline: no-protein control,log2 fold change,-0.556
Cc1c(Cl)c(C)[n+]([O-])c(Cl)c1-c1noc(-c2cc(O)c(O)c([N+](=O)[O-])c2)n1,,item: Belching,healthy Caucasian subjects,"oral, 25 mg, 4 days",,adverse drug reaction incidence,0%
N[C@@H](CC(=O)N1CCn2c(nnc2C(F)(F)F)C1)Cc1cc(F)c(F)cc1F,,,"female human, plasma","oral, 100 mg single dose",,AUC(0-2),442 ± 122 ng·h/mL
Cc1cc(Nc2cc3ncccc3c(N[C@@H]3C[C@H]4CC[C@@H](C3)N4CCC#N)n2)n[nH]1,,,healthy human,"oral, 30 mg single dose, 2 weeks",,subjects with contact dermatitis,0%
C[C@H]1Oc2cc(cnc2N)-c2c(nn(C)c2C#N)CN(C)C(=O)c2ccc(F)cc21,,,"Balb/c nude mouse, female, plasma","5 mg/kg, single dose, 12 h",,free plasma concentration,49.5 nM
COc1cccc(OC)c1-c1cc(C(=O)NC2(C(=O)O)C3CC4CC(C3)CC2C4)nn1-c1ccc(C(=O)N(C)CCCN(C)CCCN(C)C(=O)CN2CCN(CC(=O)[O-])CCN(CC(=O)[O-])CCN(CC(=O)[O-])CC2)cc1C(C)C.[177Lu+3] (centres unmarked),,,"mouse, HT-29 xenograft","4 h post injection, biodistribution",baseline: tumour over blood uptake,tumour-to-blood ratio,1.48
N#Cc1ccc2c(c1)[C@H]1CCCN(C(=O)c3ccc4[nH]cnc4c3)[C@H]1C2,,,"human, male","80 mg, day 15",,DHEA-S level,6.6 µmol/L
